Results collected from several papers.
Each line is one published result; not all experiments were run side by side. Values joined by “and” are separate records of one study, mostly repeats; a detail may differ. Numbers after ± are the reported error.
Bone morphogenetic protein 2: Bone morphogenetic protein 2 (Homo sapiens, UniProt P12643)
Chain of UniProt P12643 (whole entry, looked up): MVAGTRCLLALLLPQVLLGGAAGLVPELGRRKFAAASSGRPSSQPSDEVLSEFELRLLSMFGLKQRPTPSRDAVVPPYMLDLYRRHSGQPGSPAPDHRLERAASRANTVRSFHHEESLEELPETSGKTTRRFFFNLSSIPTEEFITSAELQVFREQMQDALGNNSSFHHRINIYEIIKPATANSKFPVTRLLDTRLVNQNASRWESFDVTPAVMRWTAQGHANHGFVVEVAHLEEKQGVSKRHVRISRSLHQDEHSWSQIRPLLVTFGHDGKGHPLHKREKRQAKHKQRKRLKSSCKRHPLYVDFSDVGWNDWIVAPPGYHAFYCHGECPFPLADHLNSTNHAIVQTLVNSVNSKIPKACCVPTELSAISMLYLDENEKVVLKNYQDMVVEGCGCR
RIPK1: Receptor-interacting serine/threonine-protein kinase 1 (RIPK1, Homo sapiens, UniProt Q13546)
Chain of UniProt Q13546 (whole entry, looked up): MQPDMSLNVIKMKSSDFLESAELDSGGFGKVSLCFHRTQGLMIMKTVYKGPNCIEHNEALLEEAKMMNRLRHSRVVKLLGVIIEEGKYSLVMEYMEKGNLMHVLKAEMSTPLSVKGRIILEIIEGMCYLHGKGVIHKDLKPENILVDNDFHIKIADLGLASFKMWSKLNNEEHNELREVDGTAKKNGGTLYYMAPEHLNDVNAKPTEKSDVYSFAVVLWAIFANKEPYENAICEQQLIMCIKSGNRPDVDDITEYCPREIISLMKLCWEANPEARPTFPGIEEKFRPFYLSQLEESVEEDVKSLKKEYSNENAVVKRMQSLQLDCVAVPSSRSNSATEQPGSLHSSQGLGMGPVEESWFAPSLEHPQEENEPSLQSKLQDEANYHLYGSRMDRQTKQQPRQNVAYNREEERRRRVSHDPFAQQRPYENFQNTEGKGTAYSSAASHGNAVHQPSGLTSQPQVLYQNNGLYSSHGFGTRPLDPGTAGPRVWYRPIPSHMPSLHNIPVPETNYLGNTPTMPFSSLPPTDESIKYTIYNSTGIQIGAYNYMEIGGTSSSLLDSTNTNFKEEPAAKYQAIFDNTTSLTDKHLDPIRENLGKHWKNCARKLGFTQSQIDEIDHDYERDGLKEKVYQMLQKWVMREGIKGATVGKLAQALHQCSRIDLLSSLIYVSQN
ABO G235S/G268A/L266M/R176G: Histo-blood group ABO system transferase (ABO, Homo sapiens, UniProt P16442, G235S/G268A/L266M/R176G)
Chain of UniProt P16442 (whole entry, unmodified, looked up): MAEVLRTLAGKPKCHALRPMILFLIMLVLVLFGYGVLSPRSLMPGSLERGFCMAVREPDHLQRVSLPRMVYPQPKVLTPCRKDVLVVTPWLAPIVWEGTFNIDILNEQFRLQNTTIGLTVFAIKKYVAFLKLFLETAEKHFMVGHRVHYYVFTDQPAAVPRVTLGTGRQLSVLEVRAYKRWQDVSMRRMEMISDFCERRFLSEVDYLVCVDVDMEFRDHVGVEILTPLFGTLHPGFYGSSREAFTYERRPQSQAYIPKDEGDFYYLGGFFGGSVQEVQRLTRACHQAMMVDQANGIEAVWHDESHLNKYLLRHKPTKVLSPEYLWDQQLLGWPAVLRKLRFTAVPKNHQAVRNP
ADORA1: Adenosine receptor A1 (ADORA1, Homo sapiens, UniProt P30542)
Chain of UniProt P30542 (whole entry, looked up): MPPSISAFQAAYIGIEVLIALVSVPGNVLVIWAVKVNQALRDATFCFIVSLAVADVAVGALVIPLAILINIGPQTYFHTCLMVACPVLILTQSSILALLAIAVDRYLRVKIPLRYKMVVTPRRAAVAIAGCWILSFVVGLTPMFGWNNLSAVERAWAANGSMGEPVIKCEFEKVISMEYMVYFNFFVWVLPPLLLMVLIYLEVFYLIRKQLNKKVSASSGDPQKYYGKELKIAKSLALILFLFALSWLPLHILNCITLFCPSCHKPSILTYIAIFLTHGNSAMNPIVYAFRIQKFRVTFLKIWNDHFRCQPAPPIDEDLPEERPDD
EPRS1: Bifunctional glutamate/proline--tRNA ligase (EPRS1, Homo sapiens, UniProt P07814)
Chain of UniProt P07814 (whole entry, looked up): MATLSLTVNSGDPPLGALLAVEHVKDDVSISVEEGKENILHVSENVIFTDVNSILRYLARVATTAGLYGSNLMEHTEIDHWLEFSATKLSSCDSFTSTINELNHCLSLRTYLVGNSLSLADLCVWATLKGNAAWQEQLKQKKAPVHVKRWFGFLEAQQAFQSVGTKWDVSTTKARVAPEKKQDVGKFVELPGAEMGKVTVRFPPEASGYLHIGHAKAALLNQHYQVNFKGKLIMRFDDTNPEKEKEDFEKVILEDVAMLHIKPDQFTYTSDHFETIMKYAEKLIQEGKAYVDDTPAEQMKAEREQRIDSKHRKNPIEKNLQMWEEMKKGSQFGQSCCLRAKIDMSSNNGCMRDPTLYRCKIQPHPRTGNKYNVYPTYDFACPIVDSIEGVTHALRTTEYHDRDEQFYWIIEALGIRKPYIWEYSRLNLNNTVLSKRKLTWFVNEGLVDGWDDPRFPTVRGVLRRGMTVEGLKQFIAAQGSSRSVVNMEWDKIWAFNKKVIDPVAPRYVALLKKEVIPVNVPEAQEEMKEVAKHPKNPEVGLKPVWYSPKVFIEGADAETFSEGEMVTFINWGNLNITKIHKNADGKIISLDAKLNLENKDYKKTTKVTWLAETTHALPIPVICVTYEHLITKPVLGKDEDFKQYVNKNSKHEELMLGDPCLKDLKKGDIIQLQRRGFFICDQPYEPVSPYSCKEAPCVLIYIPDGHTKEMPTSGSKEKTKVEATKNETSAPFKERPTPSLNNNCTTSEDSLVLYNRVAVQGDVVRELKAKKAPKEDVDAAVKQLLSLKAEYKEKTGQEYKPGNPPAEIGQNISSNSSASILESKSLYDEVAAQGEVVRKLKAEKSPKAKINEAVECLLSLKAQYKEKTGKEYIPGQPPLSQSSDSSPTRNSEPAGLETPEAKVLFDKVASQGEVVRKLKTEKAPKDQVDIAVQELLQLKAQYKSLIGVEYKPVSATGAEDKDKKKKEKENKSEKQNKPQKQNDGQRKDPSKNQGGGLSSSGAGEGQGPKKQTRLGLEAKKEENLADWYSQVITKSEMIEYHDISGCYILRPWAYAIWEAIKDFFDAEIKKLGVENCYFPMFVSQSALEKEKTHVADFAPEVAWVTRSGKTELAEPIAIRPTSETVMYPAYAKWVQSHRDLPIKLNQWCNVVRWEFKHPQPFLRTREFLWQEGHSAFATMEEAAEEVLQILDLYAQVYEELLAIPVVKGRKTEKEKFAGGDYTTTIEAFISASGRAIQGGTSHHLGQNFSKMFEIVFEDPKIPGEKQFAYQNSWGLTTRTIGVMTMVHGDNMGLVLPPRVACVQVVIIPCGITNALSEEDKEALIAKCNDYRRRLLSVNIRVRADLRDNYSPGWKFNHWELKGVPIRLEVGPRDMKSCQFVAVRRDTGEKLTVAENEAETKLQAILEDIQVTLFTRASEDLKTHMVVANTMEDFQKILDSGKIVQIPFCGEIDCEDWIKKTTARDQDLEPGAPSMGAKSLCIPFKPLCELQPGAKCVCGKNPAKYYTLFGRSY
Chain of UniProt P05067 (whole entry, looked up): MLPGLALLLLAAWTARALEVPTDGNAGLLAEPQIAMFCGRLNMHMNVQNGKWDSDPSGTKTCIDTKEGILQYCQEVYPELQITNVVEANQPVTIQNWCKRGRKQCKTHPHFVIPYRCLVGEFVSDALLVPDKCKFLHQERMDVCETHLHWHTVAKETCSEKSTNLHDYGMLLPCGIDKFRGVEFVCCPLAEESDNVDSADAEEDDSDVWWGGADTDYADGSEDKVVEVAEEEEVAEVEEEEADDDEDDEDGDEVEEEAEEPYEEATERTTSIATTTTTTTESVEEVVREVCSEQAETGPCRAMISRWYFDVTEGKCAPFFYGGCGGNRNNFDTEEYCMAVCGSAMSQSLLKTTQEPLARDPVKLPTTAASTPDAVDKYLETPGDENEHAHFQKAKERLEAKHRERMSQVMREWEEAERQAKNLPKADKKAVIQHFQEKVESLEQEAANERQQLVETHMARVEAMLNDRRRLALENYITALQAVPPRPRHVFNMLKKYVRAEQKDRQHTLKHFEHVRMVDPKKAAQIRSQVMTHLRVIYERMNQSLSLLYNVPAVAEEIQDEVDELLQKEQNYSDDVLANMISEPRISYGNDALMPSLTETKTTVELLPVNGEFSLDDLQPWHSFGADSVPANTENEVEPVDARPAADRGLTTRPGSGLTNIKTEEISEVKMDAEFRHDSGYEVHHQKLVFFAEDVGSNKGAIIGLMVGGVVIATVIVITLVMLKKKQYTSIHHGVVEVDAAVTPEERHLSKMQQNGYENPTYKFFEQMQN
Chain of UniProt P01008 (whole entry, looked up): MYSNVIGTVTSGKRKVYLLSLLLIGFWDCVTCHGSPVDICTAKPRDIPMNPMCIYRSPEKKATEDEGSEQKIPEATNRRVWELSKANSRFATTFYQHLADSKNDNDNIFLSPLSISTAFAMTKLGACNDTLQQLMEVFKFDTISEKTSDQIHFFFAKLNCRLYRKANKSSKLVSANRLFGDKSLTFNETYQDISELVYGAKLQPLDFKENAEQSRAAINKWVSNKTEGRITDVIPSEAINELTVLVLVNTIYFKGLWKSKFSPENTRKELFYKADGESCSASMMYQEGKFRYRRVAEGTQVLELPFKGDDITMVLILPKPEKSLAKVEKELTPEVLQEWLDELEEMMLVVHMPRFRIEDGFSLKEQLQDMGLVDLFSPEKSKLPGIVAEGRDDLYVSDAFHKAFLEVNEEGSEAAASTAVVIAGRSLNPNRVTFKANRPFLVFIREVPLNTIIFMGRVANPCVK
Chain of UniProt Q13131 (whole entry, unmodified, looked up): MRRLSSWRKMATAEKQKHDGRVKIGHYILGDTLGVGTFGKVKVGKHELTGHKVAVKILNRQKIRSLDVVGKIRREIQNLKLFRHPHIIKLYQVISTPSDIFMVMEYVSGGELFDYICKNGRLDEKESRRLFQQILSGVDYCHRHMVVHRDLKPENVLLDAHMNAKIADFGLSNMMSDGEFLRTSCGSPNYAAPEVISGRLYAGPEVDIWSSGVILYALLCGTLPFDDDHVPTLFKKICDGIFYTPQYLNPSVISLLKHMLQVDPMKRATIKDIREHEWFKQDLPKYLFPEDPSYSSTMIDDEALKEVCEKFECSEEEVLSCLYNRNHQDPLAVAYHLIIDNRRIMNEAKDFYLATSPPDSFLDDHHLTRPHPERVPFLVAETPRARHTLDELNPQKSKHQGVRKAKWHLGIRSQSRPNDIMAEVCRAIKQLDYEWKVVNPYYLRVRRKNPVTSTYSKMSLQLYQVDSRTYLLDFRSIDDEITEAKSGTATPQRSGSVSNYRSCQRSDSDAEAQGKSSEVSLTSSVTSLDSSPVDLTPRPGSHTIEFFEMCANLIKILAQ

CC(=O)N[C@H]1[C@H](O[C@H]2[C@H](OS(=O)(=O)O)[C@@H](OS(=O)(=O)O)[C@H](O[C@H]3[C@H](OS(=O)(=O)O)[C@@H](COS(=O)(=O)O)OC[C@@H]3NC(C)=O)O[C@@H]2C(=O)O)O[C@H](COS(=O)(=O)O)[C@@H](OS(=O)(=O)O)[C@@H]1O[C@@H]1O[C@H](C(=O)O)[C@@H](OS(=O)(=O)O)[C@H](OS(=O)(=O)O)[C@H]1OS(=O)(=O)O — Kd (Metalloproteinase inhibitor 3 (Homo sapiens, UniProt P35625); ligand displacement, FP): 0.44 µM
O=P(O)(O)O[C@@H]1[C@@H](O)[C@H](O)[C@H](O)[C@H](O)[C@H]1OP(=O)(O)O — Kd (Inositol 1,4,5-trisphosphate-gated calcium channel ITPR1, IP3-binding core (Itpr1, Rattus norvegicus, UniProt P29994, R504Q); binding, radioligand competition binding; IP3-binding core R504Q, CLM medium, with: [3H]IP3): 0.617 µM
CC(=O)N[C@@H]1[C@@H](O[C@@H]2O[C@H](C(=O)O)[C@@H](O[C@@H]3O[C@H](COS(=O)(=O)O)[C@@H](OS(=O)(=O)O)[C@H](O[C@@H]4O[C@H](C(=O)O)[C@@H](OS(=O)(=O)O)[C@H](OS(=O)(=O)O)[C@H]4OS(=O)(=O)O)[C@H]3NC(C)=O)[C@H](OS(=O)(=O)O)[C@H]2OS(=O)(=O)O)[C@H](OS(=O)(=O)O)[C@@H](COS(=O)(=O)O)O[C@H]1N=[N+]=[N-] — Kd (Bone morphogenetic protein 2; ligand displacement, FP): 2.3 µM
CC(C)(O)C#Cc1cccc(F)c1 — Kd (Microphthalmia-associated transcription factor (Homo sapiens, UniProt O75030); binding, NMR): > 1000 µM
O=C(Cc1cccc(C(F)(F)F)c1)Nc1cc(Oc2c(F)cc3nc(NC(=O)C4CC4)sc3c2Cl)ccc1F — Kd (RIPK1; binding, competition with immobilised ligand): 0.037 µM
C=CCCCCCCO[C@@H]1O[C@H](CO)[C@@H](O[C@@H]2O[C@H](CO)[C@H](O)[C@H](O)[C@H]2O[C@@H]2O[C@@H](C)[C@@H](O)[C@@H](O)[C@@H]2O)[C@H](O)[C@H]1O — Kd (ABO G235S/G268A/L266M/R176G; methyl-TROSY NMR titration lineshape analysis; apo enzyme): 318 ± 5 µM
O=c1[nH]cnc2c(CN3C[C@@H](O)[C@H](O)C3)c[nH]c12 — Kd (Purine nucleoside phosphorylase (PNP, Homo sapiens, UniProt P00491); enzyme activity, inhibitor; pH 7.4, 25 °C, first subunit slow-onset, with: 50 mM phosphate): 0.000156 ± 7.2e-05 µM
COc1ccc([C@@H](C#N)N2CCN(C(=O)c3nn(-c4ccccc4)c(=O)c4ccccc34)CC2)cc1 — Kd (B- and T-lymphocyte attenuator (BTLA, Homo sapiens, UniProt Q7Z6A9); binding, microscale thermophoresis): 0.531 µM
CC(C)C[C@H](NC(=O)[C@H](CCC(=O)O)NC(=O)[C@H](CC(=O)O)NC(=O)[C@H](CC(C)C)NC(=O)[C@H](CC(C)C)NC(=O)[C@H](CCCNC(=N)N)NC(=O)[C@H](CC(=O)O)NC(=O)[C@H](CC(C)C)NC(=O)[C@H](CCC(=O)O)NC(=O)[C@H](CO)NC(=O)[C@H](CC(C)C)NC(=O)[C@H](CC(N)=O)NC(=O)CCCCCNC(=O)c1ccc2c(c1)C(=O)OC21c2ccc(N(C)C)cc2Oc2cc(N(C)C)ccc21)C(=O)N[C@@H](CC(N)=O)C(=O)O — Kd (Focal adhesion kinase 1, FAT domain (PTK2, Homo sapiens, UniProt Q05397, I936E/L994E); binding, fluorescence polarization saturation; two-site mutant I936E+L994E): no binding
CCCn1c(=O)c2[nH]c(-c3ccc(OCC(=O)NCCNC(=O)CCCCCNC(=O)CCCCCNS(=O)(=O)c4cccc5c(N(C)C)cccc45)cc3)nc2n(CCC)c1=O — Kd (ADORA1; CRE reporter gene, antagonist; CHO-A1; Gs-mediated enhancement, with: NECA and forskolin): 0.0501 µM
CC(C)C[C@H](NC(=O)[C@H](CC(C)C)NC(=O)[C@H](CC(=O)O)NC(=O)[C@@H](N)CCCCN)C(=O)N[C@@H](CCC(=O)O)C(=O)N[C@@H](CCC(N)=O)C(=O)N[C@@H](CCCCN)C(=O)N[C@@H](CCCNC(=N)N)C(=O)N[C@@H](C)C(=O)N[C@@H](C)C(=O)N[C@H](C(=O)N[C@@H](CC(=O)O)C(=O)N[C@H](C(=O)N[C@@H](Cc1ccc(O)cc1)C(=O)N[C@@H](CS)C(=O)O)[C@@H](C)O)C(C)C — Kd (Calreticulin, citrullinated (Calr, Mus musculus, UniProt P14211); SPR; pH 7.4, 25 °C): 0.084 ± 3e-11 µM
C[n+]1cc(NC(=O)c2ccc3ccc4ccc(C(=O)Nc5cc6ccccc6[n+](C)c5)nc4c3n2)cc2ccccc21 — Kd (telomeric antiparallel G4 DNA; binding, native ESI-MS; 100 mM trimethylammonium acetate; 1 mM KCl): 0.0021 µM
COc1cc(C2CC(=O)Nc3nc(N)[nH]c(=O)c32)ccc1O (stereo not drawn) — Kd (uncharacterized protein (Leishmania donovani, UniProt A0A3Q8IA09); ITC; 298 K): 1.2 µM
Cc1ccc(S/N=C/c2c(O)ccc3ccccc23)cc1 — Kd (Poly(ADP-ribose) glycohydrolase (Homo sapiens, UniProt Q86W56); isothermal titration calorimetry): 0.547 µM
CCCn1c(=O)c2[nH]c(-c3ccc(OCC(=O)NCCNS(=O)(=O)c4cccc5c(N(C)C)cccc45)cc3)nc2n(CCC)c1=O — Kd (ADORA1; CRE reporter gene, antagonist; CHO-A1; Gs response, PTX-pretreated overnight, with: NECA and forskolin): 0.0603 µM
O=C(Cc1cccc(C(F)(F)F)c1)Nc1cc(Oc2cc3sc(NC(=O)C4CC4)nc3cc2Br)ccc1F — Kd (RIPK1; binding, competition with immobilised ligand): 0.18 µM
COc1cncc(-c2cc(F)cc(CNC(=O)c3cc(N4CC[C@@](C#N)(C5CC5)C4=O)cc(C)n3)c2)c1 — Kd (EPRS1; binding, MST): 0.0047 µM
C=CCCCCCCO[C@@H]1O[C@H](CO)[C@@H](O[C@@H]2O[C@H](CO)[C@H](O)[C@H](O)[C@H]2O[C@@H]2O[C@@H](C)[C@@H](O)[C@@H](O)[C@@H]2O)[C@H](O)[C@H]1NC(C)=O — Kd (ABO G235S/G268A/L266M/R176G; methyl-TROSY NMR titration lineshape; two-state binding model, with: acceptor binding, saturating UDP): 10 ± 1 µM
COc1cc2c(cc1-c1c(C)noc1C)ncc1[nH]c(=O)n([C@H](C)c3ccccn3)c12 — Kd (Bromodomain factor 2 (Trypanosoma brucei brucei, UniProt Q38AM1); ITC; 15 °C): 94 ± 18 µM
CCNC(=O)[C@H]1O[C@@H](n2cnc3c(NCCCCNC(=O)CCCCCNC(=O)COc4ccc(/C=C/C5=[N+]6C(=Cc7ccc(-c8cccs8)n7[B-]6(F)F)C=C5)cc4)ncnc32)[C@H](O)[C@@H]1O — Kd (ADORA1; radioligand binding; CHO-A1; apparent, from IC50, with: [3H]DPCPX): 1.17 µM
Cc1ccc(Oc2nc3cc(-c4ccc5c(ccn5C)c4)c(Cl)cc3[nH]2)cc1C(=O)O — Kd (PRKAA1/PRKAB1, phosphorylated; with gamma1 (Homo sapiens, UniProt Q13131+Q9Y478, R83A); biolayer interferometry; AMPK complex α1(R83A)β1γ1): 1.9 µM
Cc1c(OCc2ccc(Cl)c(Cl)c2)ccc(-c2cc[nH]n2)c1O — Kd (Inducible T-cell costimulator (Homo sapiens, UniProt Q9Y6W8); binding, MST; pH 7.4): 144 µM
C[C@H](NC(=O)[C@H](C)NC(=O)[C@H](Cc1ccc(O)cc1)NS(=O)(=O)c1cccc2c(N(C)C)cccc12)C(=O)N[C@@H](CCC(N)=O)C(=O)N[C@@H](CCCCN)C(=O)N[C@@H](Cc1c[nH]cn1)C(=O)N[C@@H](Cc1ccccc1)C(=O)N[C@@H](Cc1c[nH]cn1)C(=O)O — Kd (Rho guanine nucleotide exchange factor TIAM2, PDZ domain (Tiam2, Mus musculus, UniProt Q6ZPF3); fluorescence anisotropy; 25 °C, with: dansylated peptide 1 µM): > 250 µM
CC(=O)N[C@@H]1[C@@H](O[C@@H]2O[C@H](C(=O)O)[C@@H](O[C@@H]3O[C@H](COS(=O)(=O)O)[C@@H](OS(=O)(=O)O)[C@H](O[C@@H]4O[C@H](C(=O)O)[C@@H](O[C@@H]5O[C@H](COS(=O)(=O)O)[C@@H](OS(=O)(=O)O)[C@H](O[C@@H]6O[C@H](C(=O)O)[C@@H](OS(=O)(=O)O)[C@H](OS(=O)(=O)O)[C@H]6OS(=O)(=O)O)[C@H]5NC(C)=O)[C@H](OS(=O)(=O)O)[C@H]4OS(=O)(=O)O)[C@H]3NC(C)=O)[C@H](OS(=O)(=O)O)[C@H]2OS(=O)(=O)O)[C@H](OS(=O)(=O)O)[C@@H](COS(=O)(=O)O)O[C@H]1N=[N+]=[N-] — Kd (Antithrombin-III (SERPINC1, Homo sapiens, UniProt P01008); ligand displacement, FP): 0.65 µM
CCCn1c(=O)c2[nH]c(-c3ccc(OCC(=O)NCCNC(=O)CCCCCNS(=O)(=O)c4ccc(C5=c6cc7c8c(c6Oc6c5cc5c9c6CCCN9CCC5)CCC[N+]=8CCC7)c(S(=O)(=O)[O-])c4)cc3)nc2n(CCC)c1=O — Kd (ADORA1; CRE reporter gene, antagonist; CHO-A1; Gs-mediated enhancement, with: NECA and forskolin): 0.813 µM
CN(C)c1cc2ccccc2c(N)n1 — Kd (CUGBP Elav-like family member 1, RRM1/2 domains (CELF1, Homo sapiens, UniProt Q92879, S147A); isothermal titration calorimetry; 25 °C): 9.2 ± 1.6 µM
[123I]c1ccc2nc(-c3ccc(-n4ccnn4)nc3)cn2c1 — Kd (Amyloid-beta precursor protein, amyloid-beta plaques (APP, Homo sapiens, UniProt P05067)): 0.0018 µM and 0.00183 µM
CCCCCCCCO[C@@H]1O[C@H](CO)[C@H](O)[C@H](O)[C@H]1O[C@@H]1O[C@@H](C)[C@@H](O)[C@@H](O)[C@@H]1O — Kd (ABO G235S/G268A/L266M/R176G; methyl-TROSY NMR titration lineshape; two-state binding model, with: acceptor binding, saturating UDP): 28 ± 1 µM
Cc1cc(N2CC[C@@](C#N)(C3CC3)C2=O)cc(NC(=O)Cc2ccccc2)n1 — Kd (EPRS1; binding, MST): 0.028 µM
CC(=O)N[C@@H](CCCCN)C(=O)NCCCCCC(=O)N[C@H](C(=O)N[C@@H](CO)C(=O)N[C@@H](Cc1ccccc1)C(=O)N[C@]1(C)CCCCCCCCCCC[C@@](C)(C(=O)N[C@@H](CCC(=O)O)C(=O)N[C@@H](CC(N)=O)C(=O)N[C@@H](Cc2ccccc2)C(N)=O)NC(=O)[C@H](CC(C)C)NC(=O)[C@H](CC(C)C)NC(=O)[C@H](C)NC(=O)[C@H](Cc2c[nH]c3ccccc23)NC(=O)[C@H](Cc2ccc(O)cc2)NC(=O)[C@H](CCC(=O)O)NC1=O)[C@@H](C)O — Kd (E3 ubiquitin-protein ligase Mdm2 (MDM2, Homo sapiens, UniProt Q00987); cell-free assay, FP; pH 7.4): 0.114 µM
C[C@H](NC(=O)[C@H](C)NC(=O)[C@H](CO)NC(=O)[C@@H](N)CC(=O)O)C(=O)N[C@@H](CCCCN)C(=O)N[C@@H](CCCNC(=N)N)C(=O)N[C@@H](Cc1c[nH]cn1)C(=O)N[C@@H](Cc1c[nH]cn1)C(=O)NCC(=O)N[C@@H](Cc1ccc(O)cc1)C(=O)N[C@@H](CCCCN)C(=O)N[C@@H](CCCNC(=N)N)C(N)=O — Kd (Cu(I); binding, Ferrozine competition titration; pH 7.4, anaerobic): 0.2 µM
COc1ccc2nc3cc(Cl)ccc3c(NCCCCNc3nc(N)nc(N)n3)c2c1 — Kd (RNA A, CCUG repeat 11-mer; binding, ITC): 79 µM
CC(=O)N[C@@H]1[C@@H](O[C@@H]2O[C@H](C(=O)O)[C@@H](O[C@@H]3O[C@H](CO)[C@@H](OS(=O)(=O)O)[C@H](O[C@@H]4O[C@H](C(=O)O)[C@@H](OS(=O)(=O)O)[C@H](OS(=O)(=O)O)[C@H]4OS(=O)(=O)O)[C@H]3NC(C)=O)[C@H](OS(=O)(=O)O)[C@H]2OS(=O)(=O)O)[C@H](OS(=O)(=O)O)[C@@H](CO)O[C@H]1N=[N+]=[N-] — Kd (Bone morphogenetic protein 2; ligand displacement, FP): 23 µM

Some of these lines once more:
CCNC(=O)[C@H]1O[C@@H](n2cnc3c(NCCCCNC(=O)CCCCCNC(=O)COc4ccc(/C=C/C5=[N+]6C(=Cc7ccc(-c8cccs8)n7[B-]6(F)F)C=C5)cc4)ncnc32)[C@H](O)[C@@H]1O — Kd (ADORA1; radioligand binding; CHO-A1; apparent, from IC50, with: [3H]DPCPX): 1.17 µM
C[C@H](NC(=O)[C@H](C)NC(=O)[C@H](Cc1ccc(O)cc1)NS(=O)(=O)c1cccc2c(N(C)C)cccc12)C(=O)N[C@@H](CCC(N)=O)C(=O)N[C@@H](CCCCN)C(=O)N[C@@H](Cc1c[nH]cn1)C(=O)N[C@@H](Cc1ccccc1)C(=O)N[C@@H](Cc1c[nH]cn1)C(=O)O — Kd (Rho guanine nucleotide exchange factor TIAM2, PDZ domain (Tiam2, Mus musculus, UniProt Q6ZPF3); fluorescence anisotropy; 25 °C, with: dansylated peptide 1 µM): > 250 µM
